Results gathered from unrelated publications.
Each line is one published result; not all experiments were run side by side. Several values in a cell are separate wells, animals, samples, runs or records. ± marks the error that the study gave.

Compound	assay	system	setting	how to read	endpoint	value
N#Cc1ccc2c(c1)[C@H]1CCCN(C(=O)c3ccc4[nH]cnc4c3)[C@H]1C2	item: HDL	human	240 mg once daily, day 28, adjusted mean, with: metformin	reference: placebo	change from baseline	-0.08 mg/dL
CCc1c(C)nc(-c2ccc(Cl)s2)nc1Nc1ccc(CC(=O)O)cc1	–	C57BL/6J mice, high-fat diet, liver	intraperitoneal, 0.3 mg/kg daily, 60% fat diet 12 weeks, dosed last four	reference: vehicle	triglyceride content	decreased
O=C1CCc2ccc(OCCCCN3CCN(c4cccc(Cl)c4Cl)CC3)cc2N1	–	patients	dose not given, 3 months, CYP2D6 pPM and UM	–	discontinuation or switching rate	29%
N#Cc1ccc2c(-c3ccncc3)c(-c3ccc(F)cc3)nn2c1	kinase binding, competitor, MIB/MS competition, item: FPK1	Candida albicans cell lysate	100 nM	reference: DMSO	log2 fold change	0.155
C[C@H]1O[C@@H](O[C@H]2CC[C@@]3(C)[C@@H](CC[C@]4(C)[C@@H]3C=C[C@]35OC[C@@]6(CCC(C)(C)C[C@H]63)[C@@H](O)C[C@]54C)[C@]2(C)CO)[C@H](O)[C@@H](O[C@@H]2O[C@H](CO)[C@@H](O)[C@H](O)[C@H]2O)[C@H]1O	Western blot, item: PGC-1α	chronic-plus-binge ethanol-fed mice, liver	dose not given, dose level -L, unit not given	reference: β-actin	protein level	1.17 and 0.445 and 1.12
NC(=O)c1cnc2[nH]ccc2c1N[C@@H]1[C@@H]2CC3C[C@H]1C[C@@](O)(C3)C2	flow cytometry, item: CD4+ memory T cells	Japanese healthy subjects, peripheral blood	oral, 30 mg twice daily, day 7	–	change from baseline	0.38%
Cc1n[nH]c2ccc(-c3cc(OC[C@@H](N)Cc4ccccc4)cnc3-c3ccoc3)cc12	kinase binding, competitor, MIB/MS competition, item: MKK2	Candida albicans cell lysate	100 nM	reference: DMSO	log2 fold change	0.148
COc1cc(O)c(CC=C(C)C)c(O)c1C(=O)/C=C/c1ccc(O)cc1	glucose tolerance test	Tac:SW mice (male, germ-free, high-fat diet)	in diet, 60 mg/kg per day, 120 min after glucose, after 10 weeks	–	blood glucose	201 mg/dL
OC(CCN1CCCCC1)(c1ccccc1)C1CC2C=CC1C2 (centres unmarked)	resting-state EEG	healthy elderly humans	oral, 2 mg, eyes open, LS mean	reference: baseline	theta power, EEG, Fz Cz, change in	11.9%
CN(C)C(=O)Oc1cccc([N+](C)(C)C)c1	neuromuscular block reversal	rat	dose not given, 17 (unit not given), with: cisatracurium	reference: T1 twitch	train-of-four ratio	98.1
C[C@H]1C[C@H]2CSC(N)=N[C@@]2(c2nc(NC(=O)c3ccc(OC(F)F)cn3)cs2)CO1	item: Aβx-40	healthy adults, plasma	125 mg once daily, day 7	reference: placebo	percent change from baseline	-71%
C=CCn1c(=O)c2cnc(Nc3ccc(N4CCN(C)CC4)cc3)nc2n1-c1ccc2c(n1)[C@@](O)(CC)CC2	–	OVCAR-3 xenograft, NOD/SCID mice	oral, 80 mg/kg, day 49, once daily 7 d on, 7 d off x 3	–	tumour volume difference	418 ± 21.7 mm3
C[C@H](NC(=O)c1c(C(F)F)nn(C)c1Oc1cccc(C(F)(F)F)c1)c1ccc(C(=O)O)cc1	irRECIST	human, advanced tumours	750 mg	best overall response	not evaluable	14.3%
O=C(O)CNC(=O)Cc1ccccc1	–	ventricular cardiomyocytes, C57BL/6 mouse	dose not given, 0.06 s	–	sarcomere length	1.72 µm
c1ccc(-c2n[nH]cc2-c2ccnc3ccccc23)nc1	kinase binding, competitor, MIB/MS competition, item: KSP1	Candida albicans cell lysate	100 nM	reference: DMSO	log2 fold change	0.762
COc1cc(Nc2ncc3c(n2)-c2ccc(Cl)cc2C(c2c(F)cccc2OC)=NC3)ccc1C(=O)O	–	mouse, NB-SD neuroblastoma xenograft	2.6 mg/kg	direction not given	median response score	1
Cc1noc(C)c1-c1cc(C(O)(c2ccccn2)c2ccccn2)c2nc(C3CC3)[nH]c2c1	item: CCR2 expression	human, peripheral blood	3 mg, day 15, 1604 study, with: enzalutamide	–	maximum inhibition	46%
CN[C@@H]1COc2c(S(=O)(=O)NC(=O)Nc3c4c(cc5c3CCC5)CCC4)cnn2C1	item: IL-18	human participants, whole blood ex vivo	300 mg twice daily, multiple doses, 4 h, IL-18, circulating, adjusted for, with: LPS/ATP	reference: baseline	inhibition	95.4%
O=C1Nc2cc3[nH]nc(-c4ccncc4)c3cc2CN1Cc1ccccc1	RECIST v1.1	human, relapsed or refractory advanced solid tumours	intravenous, 0.9 mg/kg, pooled schedules	–	progressive disease, best response	100%
CN[C@@H](C)C(=O)N[C@H]1CN(S(=O)(=O)c2cccc(S(=O)(=O)N3CC[C@H]4CC[C@@H](C(=O)NC(c5ccccc5)c5ccccc5)N4C(=O)[C@@H](NC(=O)[C@H](C)NC)C3)c2)CC[C@H]2CC[C@@H](C(=O)NC(c3ccccc3)c3ccccc3)N2C1=O	RECIST 1.1	advanced pancreatic cancer patients	dose not given, no prior therapy, with: AG	–	best response progressive disease	0%
CC(C)NCC(O)c1ccc(O)c(O)c1 (centres unmarked)	–	ventricular cardiomyocytes, C57BL/6 mouse	dose not given, 0.524 s	–	sarcomere length	1.49 µm
Cc1cc(C)c(CNC(=O)c2cc(Cl)c3c(c2C)O[C@@](C)([C@H]2CC[C@H](N(C)C)CC2)O3)c(=O)[nH]1	IWG criteria	relapsed/refractory PTCL patients	dose not given	–	best response not evaluable	2%
C[C@H](Oc1ccc(Br)cc1-c1ccon1)C(=O)O	muscle velocity recovery cycles	human, tibialis anterior muscle	1200 mg single dose, 3.5 h post-dose, frequency ramp, first response at 15 Hz	reference: placebo	peak amplitude change	13.2%

Excerpt of the above:
Compound	assay	system	setting	how to read	endpoint	value
OC(CCN1CCCCC1)(c1ccccc1)C1CC2C=CC1C2 (centres unmarked)	resting-state EEG	healthy elderly humans	oral, 2 mg, eyes open, LS mean	reference: baseline	theta power, EEG, Fz Cz, change in	11.9%
